Measurements pooled from the literature.
Cell line: EKVX

`CN(C)CCN1CCN(c2ccc3nc(-c4ccc5nc(-c6ccc(C(F)(F)F)cc6)[nH]c5c4)[nH]c3c2)CC1` gave a growth percent of 79% (SRB; 10 µM, 48 h).
With `CCCC(CCC)C(=O)OCc1cn(-c2cc3ccccc3oc2=O)nn1` the growth percentage was 92.1% (NCI60 single-dose screen; 10 µM).
For `CCCCCCCCCCCCCCCCCCOc1ccccc1CCOP(=O)([O-])OCC[N+](C)(C)C`, the inhibition was 0.19% (cell growth or viability, SRB; 10 µM).
The cell growth of `O=C(Nc1nnc2c1c(-c1ccc(Cl)cc1)nc1sc(=Cc3ccco3)c(=O)n12)c1ccccc1` (mixture of isomers) is reported as 53.8% (SRB; 10 µM, NCI60 single-dose screen; relative to: untreated).
`Cc1ccc(C(=O)/C=C/c2ccccc2)s1` has an inhibition of 17.7% (cell growth or viability, SRB; 10 µM).
For `CCOc1cncc(-c2ccc(NC(=O)C3(c4ccnc(NS(=O)(=O)C5CC5)n4)CCOCC3)nc2)n1`, the IC50 was 710 nM (cell growth or viability, ATP luminescence; 72 h).
`C1=[N+]2CCCC[N+]3=Cc4ccc5[n]4[Au-]23[n]2c1ccc2-c1nc2ccccc2nc1-5.F[P-](F)(F)(F)(F)F` has a TGI of 4 -log M (NCI60 five-dose screen).
`Cc1ccc([N+](=O)[O-])cc1S(=O)(=O)N(C)/N=C/c1cnc2ccc(Br)cn12` has an IC50 of 1220 nM (cell growth or viability).
